Published values gathered from unrelated publications.
Compare with care: the assays were run in different laboratories. ± gives the spread as reported.
Organism: Escherichia coli

| Compound | test | test system | setting | scale | MIC |
| --- | --- | --- | --- | --- | --- |
| CC[C@H](C)[C@H](NC(=O)[C@H](CCCN)NC(=O)[C@H](CC(N)=O)NC(=O)[C@H](Cc1c[nH]c2ccccc12)NC(=O)[C@H](Cc1ccccc1)NC(=O)[C@H](CCCN)NC(=O)[C@H](CCCNC(=N)N)NC(=O)[C@H](CC(C)C)NC(=O)[C@H](Cc1c[nH]c2ccccc12)NC(=O)[C@H](CCCN)NC(=O)[C@H](CCCNC(=N)N)NC(=O)[C@H](CC(C)C)NC(=O)CNC(C)=O)C(=O)N[C@@H](CCCN)C(=O)N[C@@H](CCCNC(=N)N)C(N)=O | broth microdilution | ATCC 25922 |  |  | 6.25 µM |
| Cc1ccc2nc(C)c(C(=O)NCc3cccs3)n2c1 | broth microdilution | 3 |  |  | > 64 µM |
| N#CC1COC(=O)N1/N=C/c1ccc([N+](=O)[O-])o1 (centres unmarked) | microbial growth, broth dilution | ATCC25922 | 18 h |  | 12.5 µg/mL |
| Cc1c2oc3c(C)ccc(C(=O)N[C@@H]4C(=O)N[C@H](C(C)C)C(=O)N5[C@H](C(=O)N(C)CC(=O)N(C)[C@@H](C(C)C)C(=O)O[C@@H]4C)[C@@H](O)C[C@@H]5C)c3nc-2c(C(=O)N[C@@H]2C(=O)N[C@H](C(C)C)C(=O)N3CC(=O)C[C@H]3C(=O)N(C)CC(=O)N(C)[C@@H](C)C(=O)O[C@@H]2C)c(N)c1=O | broth microdilution | ATCC 12435 | 16 to 48 h |  | > 9.45 µg/mL |
| CC[C@H](C)[C@H](NC(=O)CNC(=O)[C@@H](NC(=O)[C@@H](N)Cc1ccccc1)[C@@H](C)CC)C(=O)N[C@@H](CCSC)C(=O)N[C@@H](C)C(=O)N[C@H](C(=O)N[C@@H](CC(C)C)C(=O)N[C@@H](C)C(=O)N[C@@H](CO)C(=O)N[C@@H](CC(C)C)C(=O)N[C@H](C(=O)N[C@H](C(=O)N1CCC[C@H]1C(=O)N[C@@H](CCCCN)C(=O)N[C@@H](CC(C)C)C(=O)N[C@H](C(=O)N[C@@H](CCC(=O)O)C(=O)N[C@@H](CCCCN)C(=O)N[C@H](C(=O)N[C@@H](CCCCN)C(=O)N[C@@H](CCC(N)=O)C(=O)N[C@@H](C)C(=O)N[C@@H](CCCNC(=N)N)C(N)=O)[C@@H](C)CC)[C@@H](C)CC)[C@@H](C)CC)C(C)C)[C@@H](C)O | broth microdilution | ATCC 35218 |  |  | > 50 µM |
| CC[C@H](C)[C@H](NC(=O)[C@H](CC(C)C)NC(=O)[C@H](C)NC(=O)[C@H](CO)NC(=O)[C@H](CCCNC(=N)N)NC(=O)[C@@H](N)CO)C(=O)N[C@H](C(=O)N[C@@H](Cc1c[nH]cn1)C(=O)N[C@@H](CCC(N)=O)C(=O)N[C@@H](CCCNC(=N)N)C(=O)N[C@@H](CC(C)C)C(=O)N[C@@H](Cc1ccccc1)C(N)=O)C(C)C | broth microdilution | Mueller Hinton broth |  |  | > 400 µg/mL |
| CC[C@H](C)[C@H](NC(=O)CNC(=O)[C@H](CCCCN)NC(=O)[C@H](C)NC(=O)[C@H](CCC(=O)O)NC(=O)[C@H](Cc1ccccc1)NC(=O)[C@H](CO)NC(=O)[C@H](CC(C)C)NC(=O)[C@@H](NC(=O)[C@H](CC(=O)O)NC(=O)[C@H](C)NC(=O)[C@@H](NC(=O)[C@@H](N)C(C)C)[C@@H](C)O)C(C)C)C(=O)N[C@@H](C)C(=O)N[C@H](C(=O)N[C@@H](CC(N)=O)C(=O)N[C@@H](Cc1c[nH]cn1)C(=O)N[C@@H](CO)C(=O)N[C@@H](C)C(=O)N[C@H]1CSSC[C@@H]2NC(=O)[C@H](C(C)C)NC(=O)CNC(=O)[C@H](CC(N)=O)NC(=O)[C@H](CCC(N)=O)NC(=O)[C@H](C)NC(=O)[C@H](CO)NC(=O)CNC(=O)CNC(=O)[C@H](CCCCN)NC(=O)[C@H](CCCCN)NC(=O)[C@H](CCCNC(=N)N)NC(=O)[C@H](CC(C)C)NC(=O)[C@H](C)NC(=O)[C@H]([C@@H](C)CC)NC(=O)[C@H](CSSC[C@@H](C(=O)N[C@@H](CCCNC(=N)N)C(=O)N[C@@H](CC(N)=O)C(=O)O)NC(=O)[C@H](C(C)C)NC2=O)NC(=O)[C@H](Cc2c[nH]cn2)NC(=O)[C@H](CC(C)C)NC(=O)[C@H](C)NC1=O)C(C)C | broth microdilution | KCTC 1682 | 16 h, 37 °C |  | > 100 µM |
| CC(C)(C)c1ccc(COc2cc3c(=O)c(C(=O)NCCNCCO)cn(Cc4ccccc4)c3cc2Cl)cc1 |  | ATCC 25922 |  | ≥80% growth inhibition | < 0.25 µg/mL |
| CCCCCCCCCCCCCCCCCCSCC1OC(OC2C(N)CC(N)C(OC3OC(CN)C(O)CC3N)C2O)C(O)C(N)C1O (centres unmarked) |  | BL21(DE3) AAC(6')/APH(2'') |  |  | > 150 µg/mL |
| CC[C@H](C)[C@H](NC(=O)[C@@H](CCCNC(=N)N)NC(=O)[C@H](CCCNC(=N)N)NC(=O)[C@@H]1CCCN1C(=O)[C@@H]1CCCN1C(=O)[C@H](CCCNC(=N)N)NC(=O)[C@@H]1CCCN1C(=O)[C@H](CCCNC(=N)N)NC(=O)[C@@H]1CCCN1C(=O)[C@H](CC(C)C)NC(=O)[C@H](Cc1ccc(O)cc1)NC(=O)[C@@H]1CCCN1C(=O)[C@@H]1CCCN1C(=O)[C@H](CCCCN)NC(=O)[C@H](CCCNC(=N)N)NC(=O)[C@@H](N)C(C)C)C(=O)N[C@@H](Cc1ccc(O)cc1)C(=O)N[C@@H](CC(N)=O)C(=O)N[C@H](CCCNC(=N)N)C(N)=O | broth microdilution | BW25113 | 18 h |  | 8 µg/mL |
| CC(C)C[C@@H]1NC(=O)[C@H](C)NC(=O)[C@H](C)NC(=O)[C@H](NC(=O)[C@H](CO)NC(=O)[C@@H](CCCCN)NC(=O)[C@@H](CC(C)C)NC(=O)[C@@H](N)Cc2ccccc2)[C@H](C(N)=O)OC1=O |  | ATCC 10798 | TFA salt |  | > 32 µg/mL |
| CC(C)C[C@H](NC(=O)[C@H](Cc1ccc(O)cc1)NC(=O)[C@@H]1CCCN1C(=O)[C@H](CCCNC(=N)N)NC(=O)[C@@H]1CCCN1C(=O)[C@H](CCCCN)NC(=O)[C@H](CC(=O)O)NC(=O)[C@@H]1CCCN1C(=O)[C@H](CCCNC(=N)N)NC(=O)C1(N)CCCCC1)C(=O)N1CCC[C@H]1C(=O)N[C@@H](CCCNC(=N)N)C(=O)N1CCC[C@H]1C(=O)N[C@@H](CCCNC(=N)N)C(=O)N1CCC[C@H]1C(=O)N1CCC[C@H]1C(=O)N[C@@H](CCCNC(=N)N)C(=O)N1CCC[C@H]1C(=O)N[C@H](C(=O)N[C@@H](CCCNC(=N)N)C(=O)N[C@@H](CSCc1cccc(CSC[C@H](NC(=O)[C@H](CCCNC(=N)N)NC(=O)[C@@H](NC(=O)[C@@H]2CCCN2C(=O)[C@H](CCCNC(=N)N)NC(=O)[C@@H]2CCCN2C(=O)[C@@H]2CCCN2C(=O)[C@H](CCCNC(=N)N)NC(=O)[C@@H]2CCCN2C(=O)[C@H](CCCNC(=N)N)NC(=O)[C@@H]2CCCN2C(=O)[C@H](CC(C)C)NC(=O)[C@H](Cc2ccc(O)cc2)NC(=O)[C@@H]2CCCN2C(=O)[C@H](CCCNC(=N)N)NC(=O)[C@@H]2CCCN2C(=O)[C@H](CCCCN)NC(=O)[C@H](CC(=O)O)NC(=O)[C@@H]2CCCN2C(=O)[C@H](CCCNC(=N)N)NC(=O)C2(N)CCCCC2)C(C)C)C(=O)NN)c1)C(=O)NN)C(C)C | bacterial growth | ATCC 25922, 100% Mueller-Hinton broth | 90 min, 37 °C, strain ATCC 25922 |  | 8.1 ± 0.6 µg/mL |
| CC[C@H](C)[C@H](NC(=O)[C@@H](Cc1ccccc1)NC)C(=O)N[C@@H](CO)C(=O)N[C@H](CCC(N)=O)C(=O)N[C@@H](C(=O)N[C@H](C(=O)N[C@@H](CO)C(=O)N[C@H]1C(=O)N[C@@H](C)C(=O)N[C@@H](C2CCCCC2)C(=O)N[C@@H]([C@@H](C)CC)C(=O)O[C@H]1C)[C@@H](C)CC)[C@@H](C)CC | broth microdilution | ATCC 10798, Mueller-Hinton broth | 16 h, 37 °C |  | > 8 µg/mL |
| CC(=O)OCc1cc(-c2nc3ccccc3n(-c3ccc([N+](=O)[O-])cc3[N+](=O)[O-])c2=O)nn1-c1ccccc1 | microbial growth | ATCC25922 |  |  | > 500 µg/mL |
| CCCCCCCCCCCCCCC(=O)N[C@@H](CCCCN)C(=O)N[C@@H](CCCCN)C(=O)N[C@@H](CCCCN)C(=O)N[C@@H](CCCCN)C(=O)N[C@@H](CCCCN)C(N)=O | broth microdilution | K12, water pH 7 | 18 h, 37 °C |  | 64 µg/mL |
| CC[C@H](C)[C@H](NC(=O)[C@H](C)NC(=O)[C@@H](NC(=O)[C@H](CC(=O)O)NC(=O)[C@H](CCCCN)NC(=O)[C@H](CO)NC(=O)[C@@H](NC(=O)[C@H](CC(N)=O)NC(=O)[C@H](C)NC(=O)[C@@H](NC(=O)[C@H](CCC(=O)O)NC(=O)[C@H](CCCCN)NC(=O)[C@@H](NC(=O)[C@@H](NC(=O)[C@H](Cc1c[nH]cn1)NC(=O)[C@H](CCCCN)NC(=O)[C@@H](NC(=O)[C@H](CCCCN)NC(=O)[C@H](CCCCN)NC(=O)[C@@H](NC(=O)[C@H](CC(C)C)NC(=O)[C@H](CCCCN)NC(=O)[C@H](CC(N)=O)NC(=O)[C@H](Cc1ccccc1)NC(=O)[C@H](CCCNC(=N)N)NC(=O)[C@H](CCCCN)NC(=O)[C@H](CCCNC(=N)N)NC(=O)[C@H](Cc1ccccc1)NC(=O)CN)C(C)C)C(C)C)[C@@H](C)O)[C@@H](C)CC)[C@@H](C)O)C(C)C)C(C)C)C(=O)N[C@H](C(=O)N[C@@H](C)C(=O)NCC(=O)N[C@@H](CO)C(=O)NCC(=O)N[C@H](C(=O)N[C@@H](C)C(=O)N[C@H](C(=O)NCC(=O)N[C@@H](C)C(=O)N[C@@H](C)C(=O)N[C@@H](CCSC)C(N)=O)C(C)C)C(C)C)C(C)C |  | isolate RKI 6 A-6, CAMHB |  |  | 4 µg/mL |
| CCCCCCSCC1OC(OC2C(N)CC(N)C(OC3OC(CN)C(O)CC3N)C2O)C(O)C(N)C1O (centres unmarked) |  | BL21(DE3) AAC(6')/APH(2'') |  |  | > 150 µg/mL |
| CC[C@H](C)[C@H](NC(=O)[C@H](CCCNC(=N)N)NC(=O)[C@H](CCCNC(=N)N)NC(=O)[C@H](CCCCN)NC(=O)[C@H](CC(N)=O)NC(=O)[C@H](CS)NC(=O)[C@H](Cc1ccc(O)cc1)NC(=O)CNC(=O)CNC(=O)[C@H](CCCNC(=N)N)NC(=O)[C@H](CCCCN)NC(=O)[C@H](CCCNC(=N)N)NC(=O)[C@H](CCCCN)NC(=O)[C@H](CC(C)C)NC(=O)[C@H](CC(C)C)NC(=O)[C@H](CS)NC(=O)[C@H](Cc1c[nH]cn1)NC(=O)[C@H](C)NC(=O)[C@H](C)NC(=O)[C@H](CS)NC(=O)[C@H](C)NC(=O)[C@H](C)NC(=O)[C@H](Cc1c[nH]cn1)NC(=O)[C@H](CC(N)=O)NC(=O)[C@@H](NC(=O)[C@H](CCCCN)NC(=O)[C@@H](NC(=O)CNC(=O)[C@H](CCCCN)NC(=O)[C@H](C)NC(=O)[C@H](CCC(=O)O)NC(=O)[C@H](C)NC(=O)[C@H](CO)NC(=O)[C@H](CC(C)C)NC(=O)[C@H](CC(C)C)NC(=O)[C@H](CC(=O)O)NC(=O)[C@H](CS)NC(=O)[C@@H](NC(=O)[C@@H](N)C(C)C)[C@@H](C)O)C(C)C)C(C)C)C(=O)N[C@@H](CS)C(=O)N[C@H](C(=O)N[C@@H](CS)C(=O)N[C@@H](CCCNC(=N)N)C(=O)N[C@@H](CC(N)=O)C(N)=O)C(C)C |  | DH5α |  |  | > 75 µg/mL |
| CC[C@H](C)[C@H](NC(=O)[C@H](CCN)NC(=O)[C@H](Cc1ccccc1)NC(=O)[C@H](Cc1ccccc1)NC(=O)CCCCCOC(=O)c1cn(C2CC2)c2cc(N3CCNCC3)c(F)cc2c1=O)C(=O)N[C@@H](CCN)C(=O)N[C@H](Cc1ccccc1)C(=O)N[C@@H](CC(C)C)C(=O)N[C@@H](CCN)C(=O)N[C@@H](C(=O)N[C@@H](CC(C)C)C(=O)N[C@@H](CO)C(N)=O)C(C)C |  |  | 24 h, 37 °C |  | 1.56 µM |
| OB(O)c1cnn(-c2cccc(Cl)c2)c1 | bacterial growth | TEM-3 ESBL clinical isolate | cefotaxime alone |  | 2 µg/mL |

Some of these lines once more:
| Compound | test | test system | setting | scale | MIC |
| --- | --- | --- | --- | --- | --- |
| CCCCCCSCC1OC(OC2C(N)CC(N)C(OC3OC(CN)C(O)CC3N)C2O)C(O)C(N)C1O (centres unmarked) |  | BL21(DE3) AAC(6')/APH(2'') |  |  | > 150 µg/mL |
